Published values from different studies.
A part holds a random share of what one study measured. Positions count from the first letter of the parent shown.

Block 1 — method: DHFR PCA, deep sequencing; sample: yeast; added: (+)-ABA 58 µM; relative to: wild-type fitted maximum; reading: higher = stronger binding
Target: ABI1, truncated, D143A, DHFR fusion (Arabidopsis thaliana)
Notes: methotrexate growth selection, single substitutions
Starting sequence: PYL1, truncated, DHFR fusion (Arabidopsis thaliana); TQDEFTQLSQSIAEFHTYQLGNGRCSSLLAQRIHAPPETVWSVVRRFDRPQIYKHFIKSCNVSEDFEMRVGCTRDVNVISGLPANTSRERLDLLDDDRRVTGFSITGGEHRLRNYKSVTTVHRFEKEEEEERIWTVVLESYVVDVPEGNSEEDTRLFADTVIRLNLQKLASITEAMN; partner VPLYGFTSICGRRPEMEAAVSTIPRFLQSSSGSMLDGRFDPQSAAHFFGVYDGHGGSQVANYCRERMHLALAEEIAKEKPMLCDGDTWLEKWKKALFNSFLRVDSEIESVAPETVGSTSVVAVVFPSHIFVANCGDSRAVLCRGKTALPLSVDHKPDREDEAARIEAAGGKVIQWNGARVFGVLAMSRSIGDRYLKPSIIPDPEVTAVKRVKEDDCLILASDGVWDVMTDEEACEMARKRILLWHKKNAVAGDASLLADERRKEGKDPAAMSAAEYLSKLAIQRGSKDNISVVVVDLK
Change | relative binding score
N149H | 31.1%
T154C | 80.8%
A170S | 70.6%
K126M | 94.3%
N61K | 94.4%
L93F | 91.9%
T119N | 12.3%
F56R | -5.36%
E127T | 94.8%
V142A | 79.3%
H110T | 37.4%
E151H | 76.3%
D96Y | 21%
E4R | 74.1%
F103E | 0.428%
V136Q | 34.4%
T1M | 89.5%
H34A | 87%
E152G | 77.1%
F56P | -0.387%
H122A | 23.6%
H16N | 5.3%
M176N | 81.9%
F124E | 86.5%
V145H | 1.61%

Block 2 — method: RNA Bind-n-Seq; form: RNA; sample: in vitro; concentration: 365 nM; relative to: no-protein control; reading: higher = stronger binding
Target: RNA binding protein fox-1 homolog 2, RRM domain, GST-SBP tag (RBFOX2, Homo sapiens, UniProt O43251-10, residues 100-194)
Notes: natural RNA segment, single round, ends assumed
Constant ends, left off below: GGGAGUUCUACAGUCCGACGAUC … UGGAAUUCUCGGGUGCCAA
Target sequence (chain): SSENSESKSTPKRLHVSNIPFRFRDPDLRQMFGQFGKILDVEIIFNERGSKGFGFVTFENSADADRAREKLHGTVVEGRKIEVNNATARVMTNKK
Sequence | RBNS enrichment (R)
ACUGGGCCCUGCCCAGCCCCGGAACUCUGCGCGAUAUCAAUACUGGCUAUUUUCUCUUCUCGCCGUAGUGCCGUUGGUUUCACAUGAUUGCACUUUUGUGGGUCGCAAGG | 0.341
CUCUUCACCCAAUGAUGACCUGACCAUGCCUGCCUGCUGAUCAGUUAACUGGUAAUCGCCUUUGCUUGCCUGUCGUCAGUGCAGCGAGCUGAGGCACUUGUCCGUUCGUC | 0.538
UGGUAUUUUUAUGUUGUCUUAUUUUAGGUAAGCUUCUGUGUAAAGCUAAAAAUCCUGUGAAUACAAUACUAUCCUUUACAGGCAGACAUUAUUGGUAAACAAGAUCUUGC | 0.447
AAGGGGGUUUGAAGCCCACCAAGACCGAAACUGGAGAAGGGCUGGACCUGGACCUGGACCUGGACCUACAGCGGGGACUUAAAUGCCUUCUUAUCCAAUAUAUCUUCUCA | 0.223
GCAUUUGUUGCUCUUGGUCCAGUCCGCCUGCCUCCUUAGGAGACCGUUCCAUGACAUGCAAGGGGAAGCUCACAGAAGAAGCCCACUGUAACUCAGUGUGAAGCAAGUGU | 0.472
ACCGCUGUCCUGGCAUUUGUGGCCACUCACUUUGUAGGAAACUCAUCUCCUUCCUGAGGAGCCGGGAGGCUGGACCAGUCCCGUCGUGCAGUCAGGUGGGCGGUGUGUCU | 0.571
GUUAUCCACCUUGUACUAGUAAGUUUUAGCACUGAAUUCCUUCUUCACUGUUGUUUGUAUUUAUGAAAUUCUGAAAUUAUGGGGAAUCAGCGUAAUGAUUAAGUUAUUCA | 0.504
AGGGGUAACCUGCUUACAUCUGGACUUUAGAAUCUGGCACACAACAAAAGUGCCUGGCAUCCACUACUGCUGCCUUUCAUUUAUAAUAAUAGCCCUUCCAUCUGGCAGUG | 0.381
UUUCAAAUUUUCAUUAAUGUAUAUAGUGCAAAAUACCAUAUUAAAGAGGGGAAUGUGGAGGACUGAAGCUGACAGUUUGGACUUUUCUUUUUGUACUUAAGUCAUGUCUU | 0.632
ACAGGCAUCUUAGAUAUUGCAGUUUCUCCUGCUAUUCACUAGAAAGAAGGCUUGGCUUUCUUGACUUUCUUGCAUAAGAGUGAAAUACUCCUUACCCAGGGUAUCAUAGU | 0.378
AGGAAAGGGAAAGAUGUUGCCAUAUUUCCUACUCUUUAGGCAUGGACUCUCCUUUCCCUUUGUUAGUGUCCUGGGUUCCCAUGGACUCAGGGAUUUGUUGGCUAAGGUUU | 0.284
GCACAUUCAUUUUCUCAGUUGAAGAAGAGAAAAUUUGAAAAUGUCCUUAUGCUUUUAGAGUUGCAACUUAAGUAUAUUUGGUAGGGUGAGUGUUUCCACUCAAAAUAUGU | 0.665

Block 3 — target: CCNB1, cyclin fold, Cln2 fusion (human); method: yeast growth competition, sequencing; sample: yeast; notes: weak parent motif; relative to: not given; reading: higher = stronger binding
Starting sequence: EXO1 docking peptide (human); KPECGRVQRAIFQ
Change | normalised enrichment score
KPECGAVQRAIFQ [R6A] | 0.0734
KPECGRVQRAIAQ [F12A] | 0.265
KPACGRVQRAIFQ [E3A] | 0.374
KPECGRVARAIFQ [Q8A] | 0.178
KPECGRAQRAIFQ [V7A] | 0.44
KPECGRVQAAIFQ [R9A] | -0.00896

Block 4 — target: FOSL2, bZIP domain (human); method: DHFR protein complementation; sample: yeast; relative to: wild-type JUN-FOS pair; reading: higher = stronger binding
Notes: single substitutions, most at no-binding floor
Starting sequence: JUN, bZIP domain (human); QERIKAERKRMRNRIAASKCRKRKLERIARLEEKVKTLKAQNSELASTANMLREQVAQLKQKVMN; partner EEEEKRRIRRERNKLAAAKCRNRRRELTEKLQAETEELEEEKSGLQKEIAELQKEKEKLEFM
Change | binding fitness
A46I | -0.0671 natural log
I28N | -0.0762 natural log
E44V | 0.0378 natural log
V56E | -1.28 natural log
R53K | 0.00654 natural log
E33L | 0.00987 natural log
A46C | -0.129 natural log
L38H | -1.13 natural log
T48E | -0.0142 natural log
K39C | -0.482 natural log
T37C | 0.0992 natural log
A57E | 0.0778 natural log
K39V | -0.246 natural log
Q58H | 0.0553 natural log
A46F | -0.0553 natural log
E33D | -0.00156 natural log
R30C | 0.0775 natural log

Block 5 — target: UBE2H UBC core domain (UniProt P62256); method: yeast two-hybrid; sample: yeast; notes: mostly zero background; relative to: not given; reading: higher = stronger interaction
Sequence of UniProt P62256 (whole entry, looked up): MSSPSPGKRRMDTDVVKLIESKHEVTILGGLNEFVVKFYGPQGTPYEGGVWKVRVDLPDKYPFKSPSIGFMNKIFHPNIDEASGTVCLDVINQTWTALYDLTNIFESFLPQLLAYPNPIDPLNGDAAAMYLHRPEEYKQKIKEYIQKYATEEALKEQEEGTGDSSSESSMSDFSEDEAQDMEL
B1: PHF7 RING domain (UniProt Q9BWX1); chain IQHGHVGEESCILCCEDLSQQSVENIQSPCCSQAIYHRKCIQKYAHTSAKHFFKCPQCNNRKEFPQEML
B2: RNF5 RING domain (UniProt Q99942); chain ERGGAGATFECNICLETAREAVVSVCGHLYCWPCLHQWLETRPERQECPVCKAGISREKVVP
B3: TRIM10 RING domain (UniProt Q9UDY6); chain SVTSLADEVNCPICQGTLREPVTIDCGHNFCRACLTRYCEIPGPDLEESPTCPLCKEPFRPGSFRP
B4: RNF4 RING domain (UniProt P78317); chain TGLRPSGTVSCPICMDGYSEIVQNGRLIVSTECGHVFCSQCLRDSLKNANTCPTCRKKINHKRYHP
B5: NSMCE1 RING domain (UniProt Q8WV22); chain RETYPDAVKICNICHSLLIQGQSCETCGIRMHLPCVAKYFQSNAEPRCPHCNDYWPHEIPKV
B6: TRIM35 RING domain (UniProt Q9UPQ4); chain PSRSFKEELLCAVCYDPFRDAVTLRCGHNFCRGCVSRCWEVQVSPTCPVCKDRASPADLRT
B7: TRIM38 RING domain (UniProt O00635); chain STKKMMEEATCSICLSLMTNPVSINCGHSYCHLCITDFFKNPSQKQLRQETFCCPQCRAPFHMDSLRP
B8: TRIM55 RING domain (UniProt Q9BYV6); chain TMDNLEKQLICPICLEMFTKPVVILPCQHNLCRKCASDIFQASNPYLPTRGGTTMASGGRFRCPSCRHEVVLDRHG
B9: TRIM3 RING domain (UniProt O75382); chain VQPMDKQFLVCSICLDRYQCPKVLPCLHTFCERCLQNYIPAQSLTLSCPVCRQTSILPEQGV
Molecule | lacZ reporter activity
MANWVFCNRCFQPPHRTSCFSLTNCGHVYCDACLGKGKKNECLICKAPCRTVLLSK (RNF212 RING domain (UniProt Q495C1)) | 0
B1 (PHF7 RING domain) | 0
FLKKLEQSFMCVCCQELVYQPVTTECFHNVCKDCLQRSFKAQVFSCPACRHDLGQNYIMI (UHRF2 RING domain (UniProt Q96PU4)) | 0
B2 (RNF5 RING domain) | 0
ISNDSETLEECMVCSDMKRDTLFGPCGHIATCSLCSPRVKKCLICKEQVQSRTKIE (MIB1 RING domain (UniProt Q86YT6)) | 0
QLQDEEDDSLCRICMDAVIDCVLLECGHMVTCTKCGKRMSECPICRQYVVRAVHVF (RNF34 RING domain (UniProt Q969K3)) | 0
B3 (TRIM10 RING domain) | 0
B4 (RNF4 RING domain) | 2490
KRQCSDVDDICSICQAEFQKPILLICQHIFCEECMTLWFNREKTCPLCRTVISDHINKW (RNFT1 RING domain (UniProt Q5M7Z0)) | 0
B5 (NSMCE1 RING domain) | 0
B6 (TRIM35 RING domain) | 0
SYEDKSNDFVCPICFDMIEEAYMTKCGHSFCYKCIHQSLEDNNRCPKCNYVVDNIDHLY (COP1 RING domain (UniProt Q8NHY2)) | 0
B7 (TRIM38 RING domain) | 0
B8 (TRIM55 RING domain) | 0
B9 (TRIM3 RING domain) | 0
